Measured values from different studies.
Each line is one published result; not all experiments were run side by side. Numbers after ± are the reported error.
Sequence of UniProt P54756 (whole entry, looked up): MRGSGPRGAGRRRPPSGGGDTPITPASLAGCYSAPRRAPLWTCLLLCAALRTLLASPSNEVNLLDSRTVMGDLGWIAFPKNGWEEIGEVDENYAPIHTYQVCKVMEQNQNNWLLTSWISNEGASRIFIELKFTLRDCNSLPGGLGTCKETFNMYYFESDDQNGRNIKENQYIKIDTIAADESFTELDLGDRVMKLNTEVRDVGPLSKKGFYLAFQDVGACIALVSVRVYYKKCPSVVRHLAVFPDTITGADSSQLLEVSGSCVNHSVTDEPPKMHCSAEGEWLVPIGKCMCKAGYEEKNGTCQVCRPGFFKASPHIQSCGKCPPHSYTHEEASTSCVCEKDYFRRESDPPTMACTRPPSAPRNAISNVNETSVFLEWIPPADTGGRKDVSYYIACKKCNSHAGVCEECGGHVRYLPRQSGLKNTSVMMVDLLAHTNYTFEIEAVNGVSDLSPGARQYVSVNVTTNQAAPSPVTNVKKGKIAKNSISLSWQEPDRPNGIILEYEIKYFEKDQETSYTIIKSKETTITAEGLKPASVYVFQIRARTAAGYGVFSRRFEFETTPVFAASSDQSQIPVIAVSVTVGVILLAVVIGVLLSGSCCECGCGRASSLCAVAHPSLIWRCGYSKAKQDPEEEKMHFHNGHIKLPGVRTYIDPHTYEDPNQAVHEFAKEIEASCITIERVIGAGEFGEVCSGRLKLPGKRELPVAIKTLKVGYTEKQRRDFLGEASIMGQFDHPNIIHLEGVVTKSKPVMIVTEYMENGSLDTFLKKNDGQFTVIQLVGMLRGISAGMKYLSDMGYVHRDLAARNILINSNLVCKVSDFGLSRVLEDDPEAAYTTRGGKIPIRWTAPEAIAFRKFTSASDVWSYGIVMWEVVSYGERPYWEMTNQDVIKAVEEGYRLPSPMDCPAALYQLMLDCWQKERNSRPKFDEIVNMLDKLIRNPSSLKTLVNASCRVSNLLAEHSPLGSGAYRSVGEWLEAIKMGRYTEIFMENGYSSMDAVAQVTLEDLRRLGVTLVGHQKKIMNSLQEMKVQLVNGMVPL

SMILES	tested on	assay	test system	conditions	scale	measurement	value
CN1CCCNC(=O)c2cccc(c2)C(=O)NCCCN(C)CCCNc2cccc3c2C(=O)c2cccc(c2C3=O)NCCC1	SAS	RNA-Seq, item: BCDIN3D mRNA		1 µM, 6 h	reference: untreated cells	log2 fold change	1.24
Cc1ncsc1-c1ccc(C(C)NC(=O)C2CC(O)CN2C(=O)C(NC(=O)CCCCCCCCCCN2CCCC(Nc3ncc(Cl)c(Nc4ccccc4S(=O)(=O)C(C)C)n3)C2)C(C)(C)C)cc1 (stereo not drawn)	22Rv1	RNA-seq, item: METTL15 mRNA		concentration not given	reference: DMSO	log2 fold change	-1.08
Cn1ncc2cc(-c3cncc(Cl)c3N3CCC4(CCNC4=O)CC3)ccc21	LS174T	gene expression, microarray, item: PPFIA4 mRNA		concentration not given, 24 h	reference: untreated cells	log2 fold change	4.63
CCCC[C@H](NC(=O)COCCOCCNC(=O)CN1CCN(CC(=O)O)CCN(CC(=O)O)CC1)C(=O)N[C@H]1CC(=O)NCCCC[C@@H](C(N)=O)NC(=O)[C@H](Cc2c[nH]c3ccccc23)NC(=O)[C@H](CCCNC(=N)N)NC(=O)[C@@H](Cc2ccccc2)NC(=O)[C@H](Cc2c[nH]cn2)NC1=O [technetium-99m labelled]			C57 mouse, brain	intravenous, 0.037 MBq, 4 h		tissue uptake	0.01 %ID/g
CC(C)C[C@H](NC(=O)[C@@H](CCCCNC(=O)[C@@H](Cc1ccccc1)NC(=O)CCCCCNC(=O)CN1CCN(CC(=O)O)CCN(CC(=O)O)CCN(CC(=O)O)CC1)NC(=O)[C@H](Cc1ccc(O)cc1)NC(=O)[C@H](CO)NC(=O)[C@H](Cc1c[nH]c2ccccc12)NC(=O)[C@H](Cc1c[nH]cn1)NC(=O)[C@@H]1CCC(=O)N1)C(=O)N[C@@H](CCCNC(=N)N)C(=O)N1CCC[C@H]1C(=O)NCC(N)=O [indium-111 labelled]			female athymic nude mice, lung	intravenous, 0.037 MBq, 1 h		tissue uptake	0.57 ± 0.16 %ID/g
Nc1ncc(-c2cc(-c3cnn(CC(F)(F)F)c3)ncc2F)nc1C(=O)NC1CNCC(F)C1 (stereo not drawn)	MST3	KINOMEscan		1 µM	reference: DMSO control	remaining binding	74%
CNS(=O)(=O)Nc1nccc(Cc2c(C)c3ccc(Oc4ncccc4F)cc3oc2=O)c1F	NCI-H2023	cell viability		7 days		IC50	> 1 µM
COC1CN([C@H]2CC[C@H]([C@@]3(C)Oc4c(Cl)cc(C(=O)NCc5c(SC)cc(C)[nH]c5=O)c(C)c4O3)CC2)C1		RNA-seq, item: TGM3	human, whole blood	dose not given, 24 h	reference: pretreatment baseline	log2 fold change	3.7
C=C(NC(=O)c1csc(-c2nc3c(cc2O)-c2nc(cs2)C(=O)NC(C(C)O)C(=O)NC(=C(C)OC)c2nc(cs2)C(=O)NC2c4nc(cs4)C(=O)NC(COC(=O)c4c5c6c(cccc6n4O)COC(=O)C(OC4CC(C)(O)C(N(C)C)C(C)O4)C2OC5)c2nc-3cs2)n1)C(N)=O (stereo not drawn)			cynomolgus monkey, both sexes, plasma	intravenous infusion, 1.5 mg/kg twice daily, 6 to 12 h after second dose		AUC(0-tau)	12800 ± 3610 ng·h/mL
C=CC(=O)Nc1cccc(Cn2ncc3cnc(Nc4cnn(CCOC)c4)nc32)c1	human TIE2	KINOMEscan		100 nM	reference: control	binding	92%
Cc1nn(-c2cccc(N)c2)c(=O)c2cnc(Nc3ccc(N4CCNCC4)cc3)nc12	EPHA5 (Homo sapiens, UniProt P54756)	enzyme activity, inhibitor				IC50	> 10 µM
C=CC(=O)N1[C@H](c2ccc3c(c2)OCO3)c2[nH]c3ccccc3c2C[C@@H]1C(=O)N1CCN(C)CC1	human cyclin E1 N112C-3xFLAG:CDK2	co-IP with TMT proteomics, item: DHX9		concentration not given, Q08211	reference: wild type DMSO	relative co-enrichment	125%

Excerpt of the above:
SMILES	tested on	assay	test system	conditions	scale	measurement	value
COC1CN([C@H]2CC[C@H]([C@@]3(C)Oc4c(Cl)cc(C(=O)NCc5c(SC)cc(C)[nH]c5=O)c(C)c4O3)CC2)C1		RNA-seq, item: TGM3	human, whole blood	dose not given, 24 h	reference: pretreatment baseline	log2 fold change	3.7
